Assay results collected from several papers.
Protocols differ between the studies behind these lines. Several values in a cell are separate wells, animals, samples, runs or records. ± gives the spread as reported.
MAP3K20: Mitogen-activated protein kinase kinase kinase 20 (MAP3K20, Homo sapiens, UniProt Q9NYL2)
Sequence of UniProt Q9NYL2 (whole entry, looked up): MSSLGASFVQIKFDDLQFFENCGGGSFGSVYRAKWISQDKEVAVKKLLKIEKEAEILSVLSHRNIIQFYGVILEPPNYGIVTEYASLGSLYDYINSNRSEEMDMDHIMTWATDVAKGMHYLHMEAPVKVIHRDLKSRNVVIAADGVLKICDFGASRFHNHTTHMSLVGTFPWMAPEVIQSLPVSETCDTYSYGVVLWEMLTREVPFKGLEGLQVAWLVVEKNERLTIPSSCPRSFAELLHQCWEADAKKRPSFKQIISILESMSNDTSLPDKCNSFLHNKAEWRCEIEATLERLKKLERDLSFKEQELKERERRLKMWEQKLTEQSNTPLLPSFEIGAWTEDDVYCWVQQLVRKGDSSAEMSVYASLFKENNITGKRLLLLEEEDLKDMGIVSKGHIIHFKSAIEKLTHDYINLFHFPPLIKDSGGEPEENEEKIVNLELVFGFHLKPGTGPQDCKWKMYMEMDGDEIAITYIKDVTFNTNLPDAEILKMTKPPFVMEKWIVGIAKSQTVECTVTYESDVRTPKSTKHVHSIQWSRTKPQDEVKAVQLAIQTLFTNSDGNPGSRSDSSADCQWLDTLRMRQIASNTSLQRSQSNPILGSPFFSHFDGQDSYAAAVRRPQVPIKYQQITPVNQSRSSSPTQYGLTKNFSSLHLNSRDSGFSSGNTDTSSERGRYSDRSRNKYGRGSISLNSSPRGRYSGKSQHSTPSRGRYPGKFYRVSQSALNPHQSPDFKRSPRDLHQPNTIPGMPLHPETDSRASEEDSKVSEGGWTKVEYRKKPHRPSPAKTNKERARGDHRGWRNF
AKT3: RAC-gamma serine/threonine-protein kinase (AKT3, Homo sapiens, UniProt Q9Y243)
Sequence of UniProt Q9Y243 (whole entry, looked up): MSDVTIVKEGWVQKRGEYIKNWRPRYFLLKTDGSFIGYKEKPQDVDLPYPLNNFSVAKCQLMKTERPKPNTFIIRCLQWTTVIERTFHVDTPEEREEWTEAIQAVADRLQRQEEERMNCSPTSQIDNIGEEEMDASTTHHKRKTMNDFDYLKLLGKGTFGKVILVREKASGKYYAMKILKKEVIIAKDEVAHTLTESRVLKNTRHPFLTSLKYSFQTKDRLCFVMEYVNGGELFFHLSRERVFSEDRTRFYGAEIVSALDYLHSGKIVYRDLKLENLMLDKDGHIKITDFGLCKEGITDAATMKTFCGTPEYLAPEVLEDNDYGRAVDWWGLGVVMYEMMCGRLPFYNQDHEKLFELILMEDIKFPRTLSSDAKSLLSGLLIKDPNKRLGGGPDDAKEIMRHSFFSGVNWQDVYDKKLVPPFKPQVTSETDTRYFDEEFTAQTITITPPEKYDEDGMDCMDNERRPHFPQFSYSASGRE
fdhA: fdhA (Pseudomonas putida, UniProt P46154)
Sequence of UniProt P46154 (whole entry, looked up): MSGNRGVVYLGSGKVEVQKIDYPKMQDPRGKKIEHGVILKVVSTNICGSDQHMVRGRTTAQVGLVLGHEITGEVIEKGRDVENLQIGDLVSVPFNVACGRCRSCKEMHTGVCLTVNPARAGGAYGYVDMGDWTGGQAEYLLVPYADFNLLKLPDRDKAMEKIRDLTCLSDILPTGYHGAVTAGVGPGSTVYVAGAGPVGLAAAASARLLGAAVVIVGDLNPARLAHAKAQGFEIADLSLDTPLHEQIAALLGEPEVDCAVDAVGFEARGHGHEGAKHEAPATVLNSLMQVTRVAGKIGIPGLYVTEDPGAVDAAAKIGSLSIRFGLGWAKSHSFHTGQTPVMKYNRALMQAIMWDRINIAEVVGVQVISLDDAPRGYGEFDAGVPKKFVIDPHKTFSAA
CLK3: Dual specificity protein kinase CLK3 (CLK3, Homo sapiens, UniProt P49761)
Sequence of UniProt Q92626 (whole entry, looked up): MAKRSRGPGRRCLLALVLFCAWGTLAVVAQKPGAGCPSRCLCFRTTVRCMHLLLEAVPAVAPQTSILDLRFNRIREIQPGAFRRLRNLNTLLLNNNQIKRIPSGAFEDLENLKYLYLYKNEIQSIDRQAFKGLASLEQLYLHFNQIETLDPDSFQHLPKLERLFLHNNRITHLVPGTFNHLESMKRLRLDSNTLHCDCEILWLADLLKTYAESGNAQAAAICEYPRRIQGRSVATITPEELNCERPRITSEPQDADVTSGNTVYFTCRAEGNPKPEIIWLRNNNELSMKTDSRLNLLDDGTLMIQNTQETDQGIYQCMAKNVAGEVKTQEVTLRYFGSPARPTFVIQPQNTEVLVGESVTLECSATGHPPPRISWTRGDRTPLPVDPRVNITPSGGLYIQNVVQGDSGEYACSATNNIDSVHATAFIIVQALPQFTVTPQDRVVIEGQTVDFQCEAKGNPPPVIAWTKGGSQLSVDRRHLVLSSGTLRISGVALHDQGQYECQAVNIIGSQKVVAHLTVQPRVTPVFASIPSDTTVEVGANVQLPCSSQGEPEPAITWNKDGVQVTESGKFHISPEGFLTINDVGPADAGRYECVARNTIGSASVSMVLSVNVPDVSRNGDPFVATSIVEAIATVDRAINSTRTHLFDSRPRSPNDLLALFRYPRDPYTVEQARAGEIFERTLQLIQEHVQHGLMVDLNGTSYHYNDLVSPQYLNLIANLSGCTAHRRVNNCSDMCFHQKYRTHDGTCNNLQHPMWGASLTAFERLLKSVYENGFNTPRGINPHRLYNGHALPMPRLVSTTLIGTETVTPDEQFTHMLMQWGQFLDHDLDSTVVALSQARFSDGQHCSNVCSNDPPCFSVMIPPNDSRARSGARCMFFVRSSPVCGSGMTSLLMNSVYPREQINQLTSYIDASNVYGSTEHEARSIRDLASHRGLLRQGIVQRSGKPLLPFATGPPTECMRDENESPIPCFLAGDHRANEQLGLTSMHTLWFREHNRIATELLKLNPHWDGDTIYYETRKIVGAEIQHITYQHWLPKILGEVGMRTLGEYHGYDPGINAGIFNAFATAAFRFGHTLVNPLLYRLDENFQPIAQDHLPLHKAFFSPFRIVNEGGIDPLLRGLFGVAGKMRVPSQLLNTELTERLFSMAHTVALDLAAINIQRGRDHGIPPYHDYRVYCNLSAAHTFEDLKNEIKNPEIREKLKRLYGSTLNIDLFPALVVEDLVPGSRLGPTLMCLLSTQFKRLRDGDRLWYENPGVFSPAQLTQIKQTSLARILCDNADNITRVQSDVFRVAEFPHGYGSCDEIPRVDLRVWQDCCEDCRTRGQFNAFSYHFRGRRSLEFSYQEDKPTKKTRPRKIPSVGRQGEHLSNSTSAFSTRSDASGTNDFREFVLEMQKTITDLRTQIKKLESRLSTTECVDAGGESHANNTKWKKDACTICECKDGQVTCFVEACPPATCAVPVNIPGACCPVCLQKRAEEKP
Sequence of UniProt P49761 (whole entry, looked up): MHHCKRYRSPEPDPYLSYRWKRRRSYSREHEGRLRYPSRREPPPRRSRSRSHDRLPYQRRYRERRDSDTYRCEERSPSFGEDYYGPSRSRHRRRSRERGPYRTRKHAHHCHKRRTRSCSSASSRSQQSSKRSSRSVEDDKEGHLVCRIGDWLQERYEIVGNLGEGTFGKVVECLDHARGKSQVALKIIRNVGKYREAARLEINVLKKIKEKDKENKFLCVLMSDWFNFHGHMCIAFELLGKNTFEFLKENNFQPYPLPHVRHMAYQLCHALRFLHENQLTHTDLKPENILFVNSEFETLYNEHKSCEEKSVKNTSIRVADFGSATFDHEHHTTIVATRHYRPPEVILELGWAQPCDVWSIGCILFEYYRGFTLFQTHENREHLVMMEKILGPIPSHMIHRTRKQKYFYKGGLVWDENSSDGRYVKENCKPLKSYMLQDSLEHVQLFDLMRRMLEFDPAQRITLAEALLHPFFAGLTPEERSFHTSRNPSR
Sequence of UniProt Q8N4C8 (whole entry, looked up): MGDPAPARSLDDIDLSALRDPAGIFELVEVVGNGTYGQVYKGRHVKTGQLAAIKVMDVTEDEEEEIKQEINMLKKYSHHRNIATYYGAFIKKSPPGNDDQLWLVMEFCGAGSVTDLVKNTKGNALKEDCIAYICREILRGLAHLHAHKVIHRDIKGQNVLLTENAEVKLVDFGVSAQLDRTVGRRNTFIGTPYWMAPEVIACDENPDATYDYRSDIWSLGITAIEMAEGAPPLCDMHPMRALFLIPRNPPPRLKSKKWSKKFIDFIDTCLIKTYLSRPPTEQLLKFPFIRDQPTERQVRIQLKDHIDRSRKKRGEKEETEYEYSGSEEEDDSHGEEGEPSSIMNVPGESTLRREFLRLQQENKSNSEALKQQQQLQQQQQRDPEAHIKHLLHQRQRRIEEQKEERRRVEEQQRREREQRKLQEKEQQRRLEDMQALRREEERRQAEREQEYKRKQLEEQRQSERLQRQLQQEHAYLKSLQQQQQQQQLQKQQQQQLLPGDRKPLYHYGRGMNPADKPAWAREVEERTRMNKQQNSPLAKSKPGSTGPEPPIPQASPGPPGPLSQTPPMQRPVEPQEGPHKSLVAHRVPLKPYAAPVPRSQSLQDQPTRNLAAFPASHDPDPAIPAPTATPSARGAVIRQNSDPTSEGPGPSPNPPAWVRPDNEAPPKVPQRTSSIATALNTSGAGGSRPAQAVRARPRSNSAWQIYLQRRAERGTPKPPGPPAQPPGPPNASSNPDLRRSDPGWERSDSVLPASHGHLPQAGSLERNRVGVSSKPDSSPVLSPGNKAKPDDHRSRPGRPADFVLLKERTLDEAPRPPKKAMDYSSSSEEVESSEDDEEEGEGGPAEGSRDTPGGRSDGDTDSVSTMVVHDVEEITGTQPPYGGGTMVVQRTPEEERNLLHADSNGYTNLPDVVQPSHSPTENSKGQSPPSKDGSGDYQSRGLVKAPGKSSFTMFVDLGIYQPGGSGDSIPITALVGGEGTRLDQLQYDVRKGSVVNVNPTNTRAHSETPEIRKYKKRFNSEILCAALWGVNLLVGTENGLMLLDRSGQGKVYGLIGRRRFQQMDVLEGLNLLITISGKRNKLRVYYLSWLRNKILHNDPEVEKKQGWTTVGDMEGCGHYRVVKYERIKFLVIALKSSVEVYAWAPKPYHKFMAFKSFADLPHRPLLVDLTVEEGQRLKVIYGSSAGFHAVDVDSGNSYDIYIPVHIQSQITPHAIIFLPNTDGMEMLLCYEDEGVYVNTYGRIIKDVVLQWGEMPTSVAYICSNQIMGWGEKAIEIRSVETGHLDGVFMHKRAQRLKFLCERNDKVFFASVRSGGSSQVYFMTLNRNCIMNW

O=C(c1ccc(F)cc1)C1CCN(CCn2c(=O)[nH]c3ccccc3c2=O)CC1 — remaining activity (Diacylglycerol kinase gamma (Dgkg, Rattus norvegicus, UniProt P49620); enzyme activity, DAG kinase; HEK293T lysate overexpressing; 50 µM, unit not given, added: [γ32P]-ATP; reference: DMSO vehicle): 0.91
Cc1cccc(C)c1C(=O)OCC(=O)[C@H](CCCCN)NC(=O)[C@H](CCCNC(=N)N)NC(=O)OCc1ccccc1 — remaining activity (Pro-cathepsin H (Ctsh, Mus musculus, UniProt P49935); inhibitor; 0.01 µM, room temperature, added: AMC substrate): 91%
COc1cc(N2CCN(C)CC2)ccc1Nc1nc(N)n(C(=S)NCc2c(Cl)cccc2Cl)n1 — remaining activity (MINK1 (Homo sapiens, UniProt Q8N4C8); enzyme activity; 10 µM; reference: control): 2.8%
CC#CC(=O)N1CCC[C@H]1c1nc(-c2ccc(C(=O)Nc3ccccn3)cc2)c2c(N)nccn12 — remaining activity (MAP3K20; kinase activity, inhibitor, HotSpot radiometric; 100 nM, added: ATP 10 µM): 105 ± 3.5%
CC(C)C(=O)Nc1n[nH]c2cc(-c3cccc(NS(=O)(=O)C4CC4)c3)ccc12 — remaining activity (PIP5K1C (Homo sapiens, UniProt O60331); ADP-Glo; 4.57 nM; reference: DMSO): 102%
c1cnc2ccc(Nc3nc(NC4CC4)c4nc[nH]c4n3)cc2c1 — remaining activity (AKT3; kinase activity, inhibitor, SelectScreen kinase profiling; 1 µM; reference: control): 104%
O=C(O)c1ccc(C(=O)c2ccccc2C(=O)O)cc1C(=O)O — remaining activity (fdhA; concentration not given, no demethylase): > 80%
Cc1cc(Nc2cc(N3CCN(C)CC3)nc(Sc3ccc(NC(=O)C4CC4)cc3)n2)[nH]n1 — remaining activity (CLK3; kinase activity, KinaseProfiler; 0.03 µM, species human; reference: control): 93%
O=C(O)c1ccc(Nc2ncc3c(n2)-c2ccc(Cl)cc2C(c2c(F)cccc2F)=NC3)cc1 — remaining activity (NEK2(h); kinase activity; 1 µM): 110%
C=CC(=O)N1CCC[C@@H](n2nc(-c3ccc(Oc4ccccc4)cc3)c3c(N)ncnc32)C1 — remaining activity (TYK2 (Homo sapiens, UniProt P29597); 1 µM): 45.1%
NC/C(=C\F)COc1cccc(Cn2c(=S)[nH]c(=O)c3[nH]cnc32)c1 — remaining activity (Peroxidasin homolog (PXDN, Homo sapiens, UniProt Q92626); enzyme activity, inhibitor, Amplex UltraRed; 30 µM; reference: control): 14.5% and 14.9%
COc1ccc(F)cc1C(=O)NCc1ccc(-c2nn([C@@H](C)C(F)(F)F)c(N)c2C(N)=O)cc1 — remaining activity (MAP3K20; kinase activity, inhibitor, HotSpot radiometric; 1000 nM, added: ATP at Km): 89.9 ± 2.9%
O=C(NC1CCC1)c1ccc2nc(-c3cccc(NS(=O)(=O)NCCN4CCCCC4)c3)cn2c1 — remaining activity (FLT4 (Homo sapiens, UniProt P35916); enzyme activity; 10 µM): 100%
COc1cc(Nc2ncc3c(n2)-c2ccc(Cl)cc2C(c2c(F)cccc2OC)=NC3)ccc1C(=O)O — remaining activity (PRKCN; kinase activity; 1 µM): 102%
C[C@@H](Oc1ccc(S(C)(=O)=O)cc1C(=O)N1C[C@@H]2C[C@]2(c2cc(C(F)(F)F)on2)C1)C(F)(F)F — remaining activity (SLC6A9 (Homo sapiens, UniProt P48067, L476T); glycine uptake, inhibitor, [3H]glycine uptake; 0.002 µM, L422T mutant, log concentration 2, added: [3H]glycine; reference: no inhibitor): 95.7%
NC(=O)c1ncn([C@@H]2O[C@H](CO[P@@](=O)(O)O[P@](=O)(O)OP(=O)(O)O)[C@@H](O)[C@H]2O)n1 — remaining activity (Non-structural polyprotein pORF1, helicase domain (Hepatitis E virus genotype 1, UniProt P33424); ATPase activity, inhibitor, colorimetric; 14 µM; reference: untreated): 87.5%
O=[N+]([O-])c1ccc(N=Nc2c(O)ccc3ccccc23)c([N+](=O)[O-])c1 — remaining activity (fdhA; concentration not given, no demethylase): > 80%
CNc1ncc2c(/C=C/C(=O)N3CCC(OC)CC3)nn(Cc3cccc(C(F)(F)F)c3)c2n1 — remaining activity (AKT3; kinase activity, inhibitor; 1 µM; reference: untreated control): 96%
COc1cc(F)ccc1-c1ncnc(Nc2cccc(C[S@](C)(=N)=O)c2)n1 — remaining activity (CLK3; kinase activity; 10 µM, added: 10 µM ATP): 93%
C1=C/COCc2cc(ccc2OCCN2CCCC2)Nc2nccc(n2)-c2cccc(c2)COC/1 — remaining activity (EGFR (Homo sapiens, UniProt P00533, G719C); concentration not given; reference: untreated control): 75%
COc1cc(-c2cncc3c2CN(C)Cc2cc(N4CCNCC4)ccc2-3)cc(OC)c1OC — remaining activity (Tribbles homolog 2 (TRIB2, Homo sapiens, UniProt Q92519); kinase activity; 1 µM, human enzyme, added: ATP 10 µM; reference: DMSO control): 108%
CC(C)OCCn1c(=S)[nH]c(=O)c2[nH]ccc21 — remaining activity (Myeloperoxidase (MPO, Homo sapiens, UniProt P05164); chlorination activity; 0.3125 µM, 0.1 h, added: iodide, TMB): 67.7%
O=C1NC(=O)/C(=C/c2ccc(-c3ccc(F)cc3O)o2)S1 — remaining activity (ROCK2 (Homo sapiens, UniProt O75116); enzyme activity; 10 µM): 70%
